Published values of several laboratories.
Every numbered part comes from another study and shows a few of its results, in no order.

Sample 1
Target: Protein C-ets-1 (ETS1, Homo sapiens, UniProt P14921, residues 1-441, Y397A, full length assumed)
Technique: protein-binding microarray
Form: double-stranded DNA, one strand shown
Matrix: in vitro
Concentration: not given
Setting: k-mer, scored over probes, only values ≥0.25
Reading: higher = stronger binding
Quantity: E-score
Target sequence (chain): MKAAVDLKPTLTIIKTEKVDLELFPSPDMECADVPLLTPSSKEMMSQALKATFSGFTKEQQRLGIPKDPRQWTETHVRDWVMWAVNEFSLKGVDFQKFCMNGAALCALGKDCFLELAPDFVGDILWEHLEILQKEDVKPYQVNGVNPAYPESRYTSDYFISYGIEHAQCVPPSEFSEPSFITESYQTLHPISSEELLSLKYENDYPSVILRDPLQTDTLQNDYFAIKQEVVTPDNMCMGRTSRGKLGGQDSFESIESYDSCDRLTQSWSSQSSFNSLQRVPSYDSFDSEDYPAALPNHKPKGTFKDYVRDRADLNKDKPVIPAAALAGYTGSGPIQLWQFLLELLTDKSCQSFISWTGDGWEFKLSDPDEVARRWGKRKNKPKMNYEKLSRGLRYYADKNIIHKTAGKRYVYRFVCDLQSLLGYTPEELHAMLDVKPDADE
AATGCGCA: 0.336
ACCCCTCC: 0.31
CCGGTGTC: 0.255
ACCGGAAA: 0.421
CTGCCATA: 0.251
GGGCGGGA: 0.36
ACATGCGC: 0.285
GGAAATGA: 0.307
ATCTGTAC: 0.262
CGACGTCG: 0.311
GCAAACCA: 0.376
CGGAAACA: 0.384
ACTTTGCC: 0.253
AATAGCAA: 0.269
TATATACA: 0.287
GACAAATA: 0.321

Sample 2
Target: RNA binding protein fox-1 homolog 2, RRM domain, GST-SBP tag (RBFOX2, Homo sapiens, UniProt O43251-10, residues 100-194)
Technique: RNA Bind-n-Seq
Form: RNA
Matrix: in vitro
Concentration: 365 nM
Setting: natural RNA segment, single round, ends assumed
Relative to: no-protein control
Reading: higher = stronger binding
Quantity: RBNS enrichment (R)
All sequences stand within: GGGAGUUCUACAGUCCGACGAUC … UGGAAUUCUCGGGUGCCAA
ACAGUUCCACAGUUGUUGAUGUGUUUGUGUGUAUAUUCGAUUUUUAUAAAGAUGGUAGUAAGUCAAUACAUUUAUCCUGAUCUGUGUAUUAUUUGUUCACAAAUUCAAGA: 0.573
UAUUUAGGGACCAAAGGACCAAACUUUUUAUUGCAGAUGUGUAGCUCUGUCAAUUAGAGGUGGAAUGGAGACCAACCUCCUUCCUGCCUCCUGGCUGUUCUUGAAACAGC: 0.374
CUCAGAGAACCCGUCCAGGGAGAUUUGAAGCCAUGGGUUAUCUUCUAGAGUUGAUACUGAUAAUAUAUUUUAAUUUUUAUUGAUGUUUAAUACCUUCUGAAACAGGAGGG: 0.374
GCAUUGAAGCAUUAAAAAUUAUUUUUCUUAAAAUCUCUUUAAGGCCUUCUUGUUGCUGUUAGAAUAGUGCUAUAUAUCAGGUAUGUGACCAUUUAUUUCAGAAGGCUGAA: 0.464
UGUGUGGUGUCUAGGAAAAUCAUAUAUAUUUUUUUCUCCAAGAAAUAAAUUCAUCCUGGACAUUGGCCAUACAGCUUUUUAAAAUUAUUACUUUGUAUGUUCAAGUGAUA: 1.68
CAUGUUUUAUGGUACUCAGCCAUCCAAAAGUGAAAGACCUAGCAUUUGAUUCUGUGCAGGACACAAAUCUCACAGGAACUAUAGCACUUUGGAAAAGCAUCAAAGUAGAA: 0.612
CUUGCUGCAUGAUGGUCAGUAGCUGAUCUGUUAUGGCAUUCACUUCCAGAUUAAUUUUCCGUGUUUGAAGUAUGUGCAUAUGUGCUUUACAGAAUAAAACAUCUGAAUUU: 2.1
UGACUCUAAUAGGACUGUAUAUACUGUUUUAAGAAUGGGCUGAAAUCAGAAUGCCUGUUUGUGGUUUCAUAUGCAAUAAUAUAUUUUUUUAAAAAUGUGGACUUCAUAGG: 2.02
GGCAAAGGCCCAGGGCACAGGCUUAUCACUCCAGUAUGGAUGGCGGGAGCUAGAGACCAGGAGAUAUGAGGCCAGUGUGAGCUGUGUCACAAGUUCCAGGUCAGCCUGUG: 0.621
CUGGUCCCCCACCUAUCAGCACCAACUCUCAGUUCAUCAGGGUUGAGAAAGGACACUGGAUUGAGCUUCUGAAAUGCCACUGGUAGCUCUGUAACAUGGGAAUGGAAAUG: 0.708
GAACUCUUUUUCUCCCUUGUACUUUUUUUUGACCUGGCAUCUUUUUAUAGGGAAAAAUGGCCUUUGUAGGCAGUGGAAAACUUGCAAGGAAAGCUGCCGUCUCUUUGGCA: 1.3
UUCAAGGGACUCAGUAAGAGAAACGGAAUGUCCCCAAGGGUCAGUGGGCCACACUCUGGCUUUGUGGCUGCUGACAGGGCUUAGCUACACGAACAGCCUGAGAAGUCACU: 0.511

Sample 3
Target: Ras GTPase-activating protein-binding protein 1, C-terminal RGG region (G3BP1, Homo sapiens, UniProt Q13283)
Chain of UniProt Q13283 (whole entry, looked up): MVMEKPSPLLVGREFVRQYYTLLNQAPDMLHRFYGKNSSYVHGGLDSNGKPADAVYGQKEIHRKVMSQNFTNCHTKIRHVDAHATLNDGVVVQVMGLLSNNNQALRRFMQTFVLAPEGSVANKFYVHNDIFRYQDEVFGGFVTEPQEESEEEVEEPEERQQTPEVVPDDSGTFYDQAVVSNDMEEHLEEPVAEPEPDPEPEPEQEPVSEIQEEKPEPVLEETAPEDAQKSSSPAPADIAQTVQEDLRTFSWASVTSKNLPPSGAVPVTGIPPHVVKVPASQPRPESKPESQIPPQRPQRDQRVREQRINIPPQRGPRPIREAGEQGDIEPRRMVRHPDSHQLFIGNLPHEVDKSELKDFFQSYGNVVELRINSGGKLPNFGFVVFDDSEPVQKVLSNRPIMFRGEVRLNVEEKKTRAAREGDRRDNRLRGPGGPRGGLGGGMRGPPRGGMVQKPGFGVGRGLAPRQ
Technique: RNA Bind-n-Seq
Form: RNA
Matrix: in vitro
Concentration: 1 µM
Setting: whole 134-nt RNA, ends assumed
With: 150 mM KCl
Relative to: input library
Reading: higher = stronger binding
Quantity: log2 enrichment
All sequences stand within: GGGAGUUCUACAGUCCGACGAUC … UGGAAUUCUCGGGUGUCAAGG
UCCUCAAGUCCUGUGCUACACAUCGUAUGUACCGAAUCGGAGGGGAGGAGGGAAAGUAUUAUGUUACGCCGUUCGGAUCUGCACUUCCAG: -0.583
CUCAAGUCCUGUGCUACACAUCGUAUGUACCGAAUCGGUUGGGGUUGGGUUGGGAAAGUAUUAUGUUACGCCGUUCGGAUCUGCACUUCC: 1.47
CACAGACAACACGCACCCACACAGACACAGAGGGAAGGGGUUGGGAUGGGGACAGGGUGCAUAGCAGGGCGGGGUAGGACCCCAGCCCCU: 0.0217
GUCCUGUGCUACACAUCGUAUGUACCGAAUCAAAUUUUUAAAUUUUUAAACCCCCAAAAAAGUAUUAUGUUACGCCGUUCGGAUCUGCAC: -0.521
GUCCUGUGCUACACAUCGUAUGUACCGAAUCGGGGUUUUGGGGUUUUGGGGUUUUGGGGAAAGUAUUAUGUUACGCCGUUCGGAUCUGCA: 2.13
CACAGACAACACGCACCCACACAGACACAGAGGGAAGGGGUUGGGAUGGGGACAGGGUGCACAGCAGGGCGGGGUAGGACCCCAGCAAAU: -0.461
UCCUCAAGUCCUGUGCUACACAUCGUAUGUACCGAAUCGGUGGUGGGGUGGGAAAGUAUUAUGUUACGCCGUUCGGAUCUGCACUUCCAG: 0.327
UGGGAGGUGGAUUUUGUUUAUUUUUUUAGCUCAUUUCCAGGGGUGGGAAUUUUUUUUUAAUAUGUGGCAUGAAUAAAGUUGUUUUUGAAA: 3.28
UGGCCCUGGUGGCAUGCGGGGAGGAAGAGGUGGCCUCAUGGAUCGUGGUGGUCCCGGUAGAAUGUUCAGAGGUGGCCGUGGUGGAGACAG: 2.12
UGGGGACAAGCUGACAGCAGCCAUGGCGAGCGGCAGUGGAGACAGCGUCACCCGUCGGAGCGUGGCAUCACAGUUUUUCACUCAAGAGGA: -2

Sample 4
Target: Histone acetyltransferase KAT6A, both winged helices, GST fusion (KAT6A, Homo sapiens, UniProt Q92794, residues 1-181)
Technique: protein binding microarray
Form: double-stranded DNA, one strand shown
Matrix: in vitro
Concentration: not given
Setting: 8-mer, flanks averaged, mean of 2 arrays, mostly near background
Relative to: not given
Reading: higher = stronger binding
Quantity: E-score
Residues (chain): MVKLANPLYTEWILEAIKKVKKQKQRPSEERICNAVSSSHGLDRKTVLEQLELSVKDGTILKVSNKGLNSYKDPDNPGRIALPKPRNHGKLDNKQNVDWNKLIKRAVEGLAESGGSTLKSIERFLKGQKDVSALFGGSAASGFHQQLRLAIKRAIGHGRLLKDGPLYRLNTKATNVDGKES
TCTACGAA: -0.0329
CACTGAAC: 0.00143
ACTGCCGA: 0.105
ACCATACG: 0.105
CATCTCTC: -0.027
CGTGGTGA: 0.105
CGTAAGAC: 0.0542
AGGCCGAT: 0.188
CATACCCG: 0.212
ATATGGAG: -0.0844
AGTTTATA: -0.0313
GGATGACC: -0.0608
AGAAGCAC: -0.186
CCTGCTGC: -0.0189
GTTATACA: -0.107
ACGGCAGG: 0.188
ATTTAACA: -0.153
AAGGATGG: -0.136
CCCGCCGA: 0.293
CACTGTTA: -0.127
ACCATTAT: -0.0373
AATGGGCA: -0.118
GCTGTGAC: 0.0703
CCGGCACA: 0.197
CTGAGGTC: -0.109
